Experimental data from different studies.
Each line is one published result; not all experiments were run side by side. “And” joins repeats or separate records; there may be more than shown.
Partner: itself
B1: INHBA 311-426 (Homo sapiens, UniProt P08476); sequence looked up; chain GLECDGKVNICCKKQFFVSFKDIGWNDWIIAPSGYHANYCEGECPSHIAGTSGSSLSFHSTVINHYRMRGHSPFANLKSCCVPTKLRPMSMLYYDDGQNIIKKDIQNMIVEECGCS
B2: AGR2 41-175 (Homo sapiens, UniProt O95994); sequence looked up; chain PQTLSRGWGDQLIWTQTYEEALYKSKTSNKPLMIIHHLDECPHSQALKKVFAENKEIQKLAEQFVLLNLVYETTDKHLSPDGQYVPRIMFVDPSLTVRADITGRYSNRLYAYEPADTALLLDNMKKALKLLKTEL
B3: phage phi29 gene 12 product D1*-D2-D3-D4 89-854 G817S/S777N/D701G/A535V/D457E/G449V/D372A/Q181E/K166R/D692N (bacteriophage phi29, UniProt P20345); N-terminal His6; sequence looked up; chain FADLVIQVIDELKQFGVSVKTYGAKGDGVTDDIRAFEKAIESGFPVYVPYGTFMVSRGIKLPSNTVLTGAGKRNAVIRFMDSVGRGESLMYNENVTTGNENIFLSSFTLDGNNKRLGQGISGIGGSRESNLSIRACHNVYIRDIEAVDCTLHGIDITCGGLDYPYLGDGTTAPNPSENIWIENCEATGFGDDGITTHHSQYINILNCYSHDPRLTANCNGFEIDDGSRHVVLSNNRSKGCYGGIEIKAHGDAPAAYNISINGHMSVEDVRSYNFRHIGHHAATAPQSVSAKNIVASNLVSIRPNNKRGFQDNATPRVLAVSAYYGVVINGLTGYTDDPNLLTETVVSVQFRARNCSLNGVVLTGFSNSENGIYVIGGSRGGDAVNISNVTLNNSGRYGVSIGSGIENVSITNISGIGDGINSPVALVSTINSNPEISGLSSIGYPTVARVAGTDYNDGLTLFNGAFRASTTSSGKIHSEGFIMGSTSGCEASVSKSGVLTSSSSKTSSERSLIAGSSTSEAKGTYNTILGSLGAVADEQFAALISASQSRASGNHNLILSSYGINTTGSYKVNGGFEKINWELDSLNGRIKARDTVTGGNTWSNFAEYFESLGGQVIETGYLVTLEKGKIRKAEKGEKIIGVISETAGFVLGESSFEWQGAVLKNEFGGIIYEEVTTEDGVKFKRPLPNPDFDPNKNYIPRSQRREWHVVGLLGQIAVRIDETVKQGHSIDAVGGVATDGDNFIVQEITTPYTKEKGYGVAIVLVK
B4: Tln1 2301-2541 (Mus musculus, UniProt P26039); chain PTVIAENELLGAAAAIEAAAKKLEQLKPRAKPKEADESLNFEEQILEAAKSIAAATSALVKAASAAQRELVAQGKVGAIPANALDDGQWSQGLISAARMVAAATNNLCEAANAAVQGHASQEKLISSAKQVAASTAQLLVACKVKADQDSEAMKRLQAAGNAVKRASDNLVKAAQKAAAFEDQENETVVVKEKMVGGIAQIIAAQEEMLRKERELEEARKKLAQIRQQQYKFLPSELRDEH
B5: cfbA 1-143 S11I (Methanocaldococcus jannaschii, UniProt Q58380); chain MEALVLVGHGIRLPYSKELLVKLAEKVKERNLFPIVEIGLMEFSEPTIPQAVKKAIEQGAKRIIVVPVFLAHGIHTTRDIPRLLGLIEDNHEHHHEHSHHHHHHHHHEHEKLEIPEDVEIIYREPIGADDRIVDIIIDRAFGR
B6: RB1CC1 1286-1594 (Homo sapiens, UniProt Q8TDY2); chain SLVAELQEKLQEEKAKFLEQLEEQEKRKNEEMQNVRTSLIAEQQTNFNTVLTREKMRKENIINDLSDKLKSTMQQQERDKDLIESLSEDRARLLEEKKKLEEEVSKLRSSSFVPSPYVATAPELYGACAPELPGESDRSAVETADEGRVDSAMETSMMSVQENIHMLSEEKQRIMLLERTLQLKEEENKRLNQRLMSQSMSSVSSRHSEKIAIRDFQVGDLVLIILDERHDNYVLFTVSPTLYFLHSESLPALDLKPGEGASGASRRPWVLGKVMEKEYCQAKKAQNRFKVPLGTKFYRVKAVSWNKKV
B7: trfB Q53A (Escherichia coli, UniProt P03052); sequence looked up; chain MKKRLTESQFQEAIQGLEVGQQTIEIARGVLVDGKPQATFATSLGLTRGAVSAAVHRVWAAFEDKNLPEGYARVTAVLPEHQAYIVRKWEADAKKKQETKR
B8: spo0J K259A (Bacillus subtilis, UniProt P26497); chain MAKGLGKGINALFNQVDLSEETVEEIKIADLRPNPYQPRKHFDDEALAELKESVLQHGILQPLIVRKSLKGYDIVAGERRFRAAKLAGLDTVPAIVRELSEALMREIALLENLQREDLSPLEEAQAYDSLLKHLDLTQEQLAKRLGKSRPHIANHLRLLTLPENIQQLIAEGTLSMGHGRTLLGLKNKNKLEPLVQKVIAEQLNVRQLEQLIQQLNQNVPRETKKKEPVKDAVLKERESYLQNYFGTTVNIKRQKKKGAIEIEFFSNEDLDRILELLSERES
B9: RECQL 49-616 (Homo sapiens, UniProt P46063); sequence looked up; chain CLEDSDAGASNEYDSSPAAWNKEDFPWSGKVKDILQNVFKLEKFRPLQLETINVTMAGKEVFLVMPTGGGKSLCYQLPALCSDGFTLVICPLISLMEDQLMVLKQLGISATMLNASSSKEHVKWVHAEMVNKNSELKLIYVTPEKIAKSKMFMSRLEKAYEARRFTRIAVDEVHCCSQWGHDFRPDYKALGILKRQFPNASLIGLTATATNHVLTDAQKILCIEKCFTFTASFNRPNLYYEVRQKPSNTEDFIEDIVKLINGRYKGQSGIIYCFSQKDSEQVTVSLQNLGIHAGAYHANLEPEDKTTVHRKWSANEIQVVVATVAFGMGIDKPDVRFVIHHSMSKSMENYYQESGRAGRDDMKADCILYYGFGDIFRISSMVVMENVGQQKLYEMVSYCQNISKCRRVLMAQHFDEVWNSEACNKMCDNCCKDSAFERKNITEYCRDLIKILKQAEELNEKLTPLKLIDSWMGKGAAKLRVAGVVAPTLPREDLEKIIAHFLIQQYLKEDYSFTAYATISYLKIGPKANLLNNEAHAITMQVTKSTQNSFRAESSQTCHSEQGDKKME
B10: NUMA1 1-1699 (Homo sapiens, UniProt Q14980); LD555 dye on C-terminal SNAP; sequence looked up; chain MTLHATRGAALLSWVNSLHVADPVEAVLQLQDCSIFIKIIDRIHGTEEGQQILKQPVSERLDFVCSFLQKNRKHPSSPECLVSAQKVLEGSELELAKMTMLLLYHSTMSSKSPRDWEQFEYKIQAELAVILKFVLDHEDGLNLNEDLENFLQKAPVPSTCSSTFPEELSPPSHQAKREIRFLELQKVASSSSGNNFLSGSPASPMGDILQTPQFQMRRLKKQLADERSNRDELELELAENRKLLTEKDAQIAMMQQRIDRLALLNEKQAASPLEPKELEELRDKNESLTMRLHETLKQCQDLKTEKSQMDRKINQLSEENGDLSFKLREFASHLQQLQDALNELTEEHSKATQEWLEKQAQLEKELSAALQDKKCLEEKNEILQGKLSQLEEHLSQLQDNPPQEKGEVLGDVLQLETLKQEAATLAANNTQLQARVEMLETERGQQEAKLLAERGHFEEEKQQLSSLITDLQSSISNLSQAKEELEQASQAHGARLTAQVASLTSELTTLNATIQQQDQELAGLKQQAKEKQAQLAQTLQQQEQASQGLRHQVEQLSSSLKQKEQQLKEVAEKQEATRQDHAQQLATAAEEREASLRERDAALKQLEALEKEKAAKLEILQQQLQVANEARDSAQTSVTQAQREKAELSRKVEELQACVETARQEQHEAQAQVAELELQLRSEQQKATEKERVAQEKDQLQEQLQALKESLKVTKGSLEEEKRRAADALEEQQRCISELKAETRSLVEQHKRERKELEEERAGRKGLEARLQQLGEAHQAETEVLRRELAEAMAAQHTAESECEQLVKEVAAWRERYEDSQQEEAQYGAMFQEQLMTLKEECEKARQELQEAKEKVAGIESHSELQISRQQNELAELHANLARALQQVQEKEVRAQKLADDLSTLQEKMAATSKEVARLETLVRKAGEQQETASRELVKEPARAGDRQPEWLEEQQGRQFCSTQAALQAMEREAEQMGNELERLRAALMESQGQQQEERGQQEREVARLTQERGRAQADLALEKAARAELEMRLQNALNEQRVEFATLQEALAHALTEKEGKDQELAKLRGLEAAQIKELEELRQTVKQLKEQLAKKEKEHASGSGAQSEAAGRTEPTGPKLEALRAEVSKLEQQCQKQQEQADSLERSLEAERASRAERDSALETLQGQLEEKAQELGHSQSALASAQRELAAFRTKVQDHSKAEDEWKAQVARGRQEAERKNSLISSLEEEVSILNRQVLEKEGESKELKRLVMAESEKSQKLEERLRLLQAETASNSARAAERSSALREEVQSLREEAEKQRVASENLRQELTSQAERAEELGQELKAWQEKFFQKEQALSTLQLEHTSTQALVSELLPAKHLCQQLQAEQAAAEKRHREELEQSKQAAGGLRAELLRAQRELGELIPLRQKVAEQERTAQQLRAEKASYAEQLSMLKKAHGLLAEENRGLGERANLGRQFLEVELDQAREKYVQELAAVRADAETRLAEVQREAQSTARELEVMTAKYEGAKVKVLEERQRFQEERQKLTAQVEQLEVFQREQTKQVEELSKKLADSDQASKVQQQKLKAVQAQGGESQQEAQRLQAQLNELQAQLSQKEQAAEHYKLQMEKAKTHYDAKKQQNQELQEQLRSLEQLQKENKELRAEAERLGHELQQAGLKTKEAEQTCRHLTAQVRSLEAQVAHADQQLRDLGK
B11: CRYBA1 (Homo sapiens, UniProt P05813-1); sequence looked up; chain METQAEQQELETLPTTKMAQTNPTPGSLGPWKITIYDQENFQGKRMEFTSSCPNVSERSFDNVRSLKVESGAWIGYEHTSFCGQQFILERGEYPRWDAWSGSNAYHIERLMSFRPICSANHKESKMTIFEKENFIGRQWEISDDYPSLQAMGWFNNEVGSMKIQSGAWVCYQYPGYRGYQYILECDHHGGDYKHWREWGSHAQTSQIQSIRRIQQ
B12: clcA 1-465 C85A/H234C/I197A (Escherichia coli, UniProt P37019); chain MKTDTPSLETPQAARLRRRQLIRQLLERDKTPLAILFMAAVVGTLVGLAAVAFDKGVAWLQNQRMGALVHTADNYPLLLTVAFLASAVLAMFGYFLVRKYAPEAGGSGIPEIEGALEDQRPVRWWRVLPVKFFGGLGTLGGGMVLGREGPTVQIGGNIGRMVLDIFRLKGDEARHTLLATGAAAGLAAAFNAPLAGALFIIEEMRPQFRYTLISIKAVFIGVIMSTIMYRIFNCEVALIDVGKLSDAPLNTLWLYLILGIIFGIFGPIFNKWVLGMQDLLHRVHGGNITKWVLMGGAIGGLCGLLGFVAPATSGGGFNLIPIATAGNFSMGMLVFIFVARVITTLLCFSSGAPGGIFAPMLALGTVLGTAFGMVAVELFPQYHLEAGTFAIAGMGALLAASIRAPLTGIILVLEMTDNYQLILPMIITGLGATLLAQFTGGKPLYSAILARTLAKQEAEQLARSK
B13: PF1070 1-140 D101A (Pyrococcus furiosus, UniProt Q8U1Y4); sequence looked up; chain MPSSSKSDFSFSTLIIPQHYLRAILKVVSSSSVEVCGFLFGKENRVLKVRFIRNRLNSPVEFEMDPEEMLKALEEAEQENLEVVGIFHSHIACPPIPSGKALEGMKRWPVIWLIVNEKGEYKAWILSEKNKISEVKIVVE

Molecule = B1 (INHBA 311-426); test = western blot; subunits per oligomer = 2
Molecule = B2 (AGR2 41-175); test = SEC; subunits per oligomer = 2
Molecule = B3; test = SDS-PAGE; subunits per oligomer = 3
Molecule = B4 (Tln1 2301-2541); test = SEC-MALS; subunits per oligomer = 2
Molecule = Aqp4 (Mus musculus, UniProt P55088-1); test = native gel; subunits per oligomer = 4
Molecule = RNJ fragment (Arabidopsis thaliana) (sequence not shown); test = SEC; subunits per oligomer = 4
Molecule = portal protein dodecamer (Staphylococcus phage 80alpha, UniProt A4ZFA8); test = cryo-EM; subunits per oligomer = 12
Molecule = B5 (cfbA 1-143 S11I); test = SEC; subunits per oligomer = 2
Molecule = B6 (RB1CC1 1286-1594); test = AUC (sedimentation velocity); subunits per oligomer = 2
Molecule = B7 (trfB Q53A); test = SEC; subunits per oligomer = 2
Molecule = B8 (spo0J K259A); test = SEC-MALS; subunits per oligomer = 2
Molecule = B9 (RECQL 49-616); test = SEC; subunits per oligomer = 2
Molecule = B10 (NUMA1 1-1699); test = mass photometry; subunits per oligomer = 2
Molecule = B11 (CRYBA1); test = native MS; conditions = 11.5 µM, pH 7.5; subunits per oligomer = 6 and 4
Molecule = B12 (clcA 1-465 C85A/H234C/I197A); test = SEC; subunits per oligomer = 2
Molecule = B13 (PF1070 1-140 D101A); test = SEC; subunits per oligomer = 2

Repeated from above:
Molecule = B10 (NUMA1 1-1699); test = mass photometry; subunits per oligomer = 2
Molecule = B5 (cfbA 1-143 S11I); test = SEC; subunits per oligomer = 2
